Assay results from different studies.
Protocols differ between the studies behind these lines. Values joined by “and” are separate records of one study, mostly repeats; a detail may differ. ± gives the spread as reported.

With `CC[C@H](C)[C@H](NC(=O)[C@H](CCCCN)NC(=O)CNC(=O)[C@H](CC(C)C)NC(=O)[C@H](Cc1ccccc1)NC(=O)[C@H](CCCCN)NC(=O)[C@H](CO)NC(=O)[C@H](Cc1ccccc1)NC(=O)[C@H](Cc1c[nH]c2ccccc12)NC(=O)[C@H](CCC(N)=O)NC(=O)[C@@H](NC(=O)[C@H](Cc1ccccc1)NC(=O)CCCCCNC(=O)CN1CCN(CC(=O)O)CCN(CC(=O)O)CCN(CC(=O)O)CC1)C(C)C)C(=O)N[C@@H](CCC(=O)O)C(=O)N1CCC[C@H]1C(=O)N[C@@H](CC(=O)O)C(=O)N[C@H](C(=O)N[C@@H](CO)C(=O)N[C@@H](CCC(N)=O)C(=O)N[C@H](C(=O)N[C@@H](CCC(N)=O)C(=O)N[C@@H](CC(=O)O)C(=O)N1CCC[C@H]1C(=O)N[C@@H](CC(N)=O)C(=O)N[C@@H](CC(=O)O)C(=O)N[C@@H](CCC(N)=O)C(=O)N[C@@H](Cc1ccc(O)cc1)C(=O)N[C@@H](CCC(=O)O)C(=O)N1CCC[C@H]1C(=O)N[C@@H](Cc1ccccc1)C(=O)O)C(C)C)C(C)C` [copper-64 labelled] the tissue uptake was 0.71 ± 0.07 %ID/g (C57BL/6 mice, blood; together with: LPS 0.1 mg/kg intratracheal).
`CN1Cc2cc(Cl)ccc2-n2c(nnc2C2CCN(c3cccc([18F])n3)CC2)C1` has a tissue uptake of 5.18 ± 2.12 %ID/g (C57BL/6 mouse male, small intestine; intravenous, 3.7 MBq, 1 min).
`CCCCCCCCCCCCCCCC(=O)N[C@@H](CCC(=O)NCCOCCOCCC(=O)NCCOCCOCCC(=O)NCCCC[C@H](NC(=O)[C@H](CC(=O)O)NC(=O)[C@H](CC(C)C)NC(=O)[C@H](Cc1ccc(O)cc1)NC(=O)[C@H](CCCCN)NC(=O)[C@H](CO)NC(=O)[C@H](Cc1ccc(O)cc1)NC(=O)[C@H](CC(=O)O)NC(=O)[C@H](CO)NC(=O)[C@@H](NC(=O)[C@H](Cc1ccccc1)NC(=O)[C@@H](NC(=O)CNC(=O)[C@H](CCC(N)=O)NC(=O)[C@@H](CO)NC(=O)[C@@H](N)Cc1c[nH]cn1)[C@@H](C)O)[C@@H](C)O)C(=O)N[C@@H](CCCNC(=N)N)C(=O)N[C@@H](CCCNC(=N)N)C(=O)N[C@@H](C)C(=O)N[C@@H](CCC(N)=O)C(=O)N[C@@H](CC(=O)O)C(=O)N[C@@H](Cc1ccccc1)C(=O)N[C@H](C(=O)N[C@@H](CCC(N)=O)C(=O)N[C@@H](Cc1c[nH]c2ccccc12)C(=O)N[C@@H](CC(C)C)C(=O)N[C@@H](CC(C)C)C(=O)N[C@@H](CC(N)=O)C(=O)N[C@H](C(=O)NCC(=O)NCC(=O)N1CCC[C@H]1C(=O)N[C@@H](CO)C(=O)N[C@@H](CO)C(=O)NCC(=O)N[C@@H](C)C(=O)N1CCC[C@H]1C(=O)N1CCC[C@H]1C(=O)N1CCC[C@H]1C(=O)N[C@@H](CO)C(N)=O)[C@@H](C)O)C(C)C)C(=O)O` has an MRT of 6.04 ± 1.51 h (rhesus monkey, both sexes, plasma; subcutaneous, 20 µg/kg, multiple doses, day 1).
The plasma concentration of `CCCCCCCCCCCCCCCC(=O)NCCCC[C@H](NC(=O)[C@H](CCC(=O)O)NC(=O)[C@H](Cc1ccc(O)cc1)NC(=O)[C@H](CCC(=O)O)NC(=O)COCC(=O)NCCCOCCOCCOCCCNC(=O)[C@H](Cc1ccccc1)NC(=O)[C@H](CC(N)=O)NC(=O)[C@H](Cc1c[nH]cn1)NC(=O)[C@@H](NC(=O)[C@H](CC(=O)O)NC(=O)[C@H](CCC(N)=O)NC(=O)[C@H](CC(C)C)NC(=O)[C@H](CCCCN)NC(=O)[C@H](CCCCN)NC(=O)[C@H](CCCNC(=N)N)NC(=O)[C@H](CC(C)C)NC(=O)[C@H](Cc1c[nH]c2ccccc12)NC(=O)[C@H](CCC(=O)O)NC(=O)[C@@H](NC(=O)[C@H](CCCNC(=N)N)NC(=O)[C@H](CCC(=O)O)NC(=O)[C@H](CCSC)NC(=O)[C@H](CO)NC(=O)[C@H](CC(N)=O)NC(=O)[C@H](CC(C)C)NC(=O)[C@H](Cc1c[nH]cn1)NC(=O)[C@H](CCCCN)NC(=O)CNC(=O)[C@H](CC(C)C)NC(=O)[C@H](CC(N)=O)NC(=O)[C@H](Cc1c[nH]cn1)NC(=O)[C@H](CCSC)NC(=O)[C@H](CC(C)C)NC(=O)[C@H](CCC(N)=O)NC(=O)[C@@H](NC(=O)[C@H](CCC(=O)O)NC(=O)[C@H](CO)NC(=O)[C@@H](NC(=O)[C@@H](N)CO)C(C)C)[C@@H](C)CC)C(C)C)C(C)C)C(=O)N[C@@H](CCC(=O)O)C(=O)N[C@@H](Cc1ccc(O)cc1)C(=O)N[C@@H](CCC(=O)O)C(N)=O` is reported as 8.79 nM (ELISA; female CD-1 mice, blood plasma; subcutaneous, 10 nmol/kg, 0.167 h).
`CSCC[C@H](NC(=O)[C@@H](NC(=O)[C@H](CC(C)C)NC(=O)[C@@H](NC(=O)[C@H](Cc1c[nH]cn1)NC(=O)CCCCCNC(=O)[C@H](CCCNC(=N)N)NC(=O)[C@H](CCCNC(=N)N)NC(=O)[C@H](CCCNC(=N)N)NC(=O)[C@H](CCC(N)=O)NC(=O)[C@H](CCCNC(=N)N)NC(=O)[C@H](CCCNC(=N)N)NC(=O)[C@H](CCCCN)NC(=O)[C@H](CCCCN)NC(=O)[C@H](CCCNC(=N)N)NC(=O)CNC(=O)[C@@H](N)Cc1ccc(O)cc1)C(C)C)C(C)C)C(=O)N[C@@H](CS)C(=O)N[C@@H](C)C(=O)N[C@H](C(N)=O)[C@@H](C)O` has a serum chloride of 107 mmol/L and 108 mmol/L and 112 mmol/L (C57BL/6J mice; Alzet osmotic pump, 3 mg/kg, 8 weeks).
With `C[C@H](O)[C@@H](NC(=O)[C@H]1CCCN1C(=O)[C@@H](CCCCN)NC(=O)[C@@H](CO)NC(=O)[C@@H](Cc1ccc(O)cc1)NC(=O)[C@@H](CC(N)=O)NC(=O)CCOCCOCCOCCNC(=O)CN1CCN(CC(=O)O)CCN(CC(=O)O)CCN(CC(=O)O)CC1)C(=O)N[C@H](CC(=O)O)C(=O)N[C@H](CCCNC(=N)N)C(=O)N[C@H](CCC(N)=O)C(=O)N[C@H](Cc1ccc(O)cc1)C(=O)N[C@H](Cc1c[nH]cn1)C(=O)N[C@H](Cc1ccccc1)C(N)=O` [gallium-68 labelled] the tissue uptake was 0.81 ± 0.12 %ID/g (BALB/c nude mice U-87 MG tumour, fat; intravenous, 1.85 MBq, 0.5 h, radiolabelled).
`CC(C)(CCCC/C=C/CCCCCC(C)(C)C(=O)O)C(=O)O` gave a plasma concentration of 524 ng/mL (ICR mice, both sexes; oral, dose not given, 24 h).
For `O=C1NC2(CC2)COc2ncc(F)cc2[C@H]2COCCN2c2ccn3ncc1c3n2`, the lymphocyte percentage was 77 ± 6.7% (Sprague-Dawley rat, male, blood; oral, 2.5 mg/kg/day, 4 weeks, end of treatment, subacute toxicity).
For `COc1cccc2c1C(=O)c1c(O)c3c(c(O)c1C2=O)CC(O)(C(=O)CO)CC3OC1CC(NC(=O)OC2C=CCCC(C)(C(=O)NCC(=O)O)CC2)C(O)C(C)O1` (stereo not shown), the concentration was 4.17 ng/g (female C57BL/6 mouse, biopolymer injection site tissue; intravenous, 43 mg/kg doxorubicin equivalents, 19 day).
The tissue-to-tissue ratio of `CCCC[C@H]1C(=O)N(C)[C@@H](CCCC)C(=O)N[C@@H](CCCNC(=O)CN2CCN(CC(=O)O)CCN(CC(=O)O)CCN(CC(=O)O)CC2)C(=O)N[C@H](C(=O)NCC(N)=O)CSCC(=O)N[C@@H](Cc2ccc(O)cc2)C(=O)N(C)[C@@H](C)C(=O)N[C@@H](CC(N)=O)C(=O)N2CCC[C@H]2C(=O)N[C@@H](Cc2c[nH]cn2)C(=O)N[C@@H](CC(C)C)C(=O)N(C)CC(=O)N[C@@H](Cc2c[nH]c3ccccc23)C(=O)N[C@@H](CO)C(=O)N[C@@H](Cc2c[nH]c3ccccc23)C(=O)N1C` [gallium-68 labelled] is reported as 0.48 ± 0.11 (NOD/SCID mice, CHO-hPD-L1 xenograft, tumour over liver; iv, dose not given, 10 min; relative to: tumour over liver).
Under “systolic blood pressure”, `C/C(=N\OCCCN1CCCCC1)c1ccc(C(F)(F)F)cc1` is recorded as 151 mmHg and 108 mmHg (rhesus monkey; dose not given, after dosing).
Under “uptake in large intestine with contents”, `N#[11C]c1ccc(-c2csc(NN=C3CCCC3)n2)cc1` is recorded as 1.97 ± 0.13 %ID/g (C57BL/6 mouse, male; intravenous, 3 MBq, 1 min).
`N=C(N)NCCC[C@@H](NC(=O)[C@H](N)Cc1c[nH]c2ccccc12)C(=O)N[C@H](CCCCN)C(=O)N[C@H](Cc1c[nH]c2ccccc12)C(=O)N[C@H](CCCNC(=N)N)C(=O)N[C@H](CCCCN)C(=O)N[C@H](Cc1c[nH]c2ccccc12)C(=O)N[C@H](CCCNC(=N)N)C(=O)N[C@H](CCCCN)C(=O)N[C@H](Cc1c[nH]c2ccccc12)C(=O)N[C@H](CCCNC(=N)N)C(=O)N[C@H](CCCCN)C(N)=O` gave a survival of 100% (mouse; intraperitoneal, 20 mg/kg single dose, day 4).

Excerpt of the above:
`CN1Cc2cc(Cl)ccc2-n2c(nnc2C2CCN(c3cccc([18F])n3)CC2)C1` has a tissue uptake of 5.18 ± 2.12 %ID/g (C57BL/6 mouse male, small intestine; intravenous, 3.7 MBq, 1 min).
Under “uptake in large intestine with contents”, `N#[11C]c1ccc(-c2csc(NN=C3CCCC3)n2)cc1` is recorded as 1.97 ± 0.13 %ID/g (C57BL/6 mouse, male; intravenous, 3 MBq, 1 min).
